Measured values collected from several papers.
Lines come from different studies, so protocols differ. ± marks the error that the study gave.
CYP2C8: Cytochrome P450 2C8 (CYP2C8, Homo sapiens, UniProt P10632)
Chain of UniProt P10632 (whole entry, looked up): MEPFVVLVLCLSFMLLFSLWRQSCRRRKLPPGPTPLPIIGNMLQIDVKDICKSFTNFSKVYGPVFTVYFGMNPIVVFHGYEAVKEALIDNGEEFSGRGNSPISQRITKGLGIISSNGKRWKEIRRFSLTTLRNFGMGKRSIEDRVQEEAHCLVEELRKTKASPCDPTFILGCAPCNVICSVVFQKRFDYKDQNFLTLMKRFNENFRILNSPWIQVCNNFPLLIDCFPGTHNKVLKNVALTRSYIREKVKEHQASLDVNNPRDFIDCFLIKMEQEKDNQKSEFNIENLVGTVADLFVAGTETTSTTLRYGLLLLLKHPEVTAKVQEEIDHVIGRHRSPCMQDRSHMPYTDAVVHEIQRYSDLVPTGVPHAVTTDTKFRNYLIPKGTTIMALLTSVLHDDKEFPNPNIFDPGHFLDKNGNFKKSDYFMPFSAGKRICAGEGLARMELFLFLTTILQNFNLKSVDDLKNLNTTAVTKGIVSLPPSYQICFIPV
UCHL1: Ubiquitin carboxyl-terminal hydrolase isozyme L1 (UCHL1, Homo sapiens, UniProt P09936)
Chain of UniProt P09936 (whole entry, looked up): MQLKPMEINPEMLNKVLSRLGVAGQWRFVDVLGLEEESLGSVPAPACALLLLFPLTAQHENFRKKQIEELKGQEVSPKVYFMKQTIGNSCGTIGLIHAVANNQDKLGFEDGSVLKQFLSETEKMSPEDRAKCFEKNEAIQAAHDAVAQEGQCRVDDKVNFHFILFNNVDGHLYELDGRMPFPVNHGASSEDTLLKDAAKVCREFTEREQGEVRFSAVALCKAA

`COc1cc(O)c(CC=C(C)C)c2c1C(=O)CC(c1ccc(O)cc1)O2` (stereo not drawn) has an inhibition of 98.9 ± 0.1% (CYP2C8; enzyme activity, inhibitor; human liver microsomes; 10 µM, pH 7.4, with: amodiaquine).
For `CN(C(=O)n1cnc(-c2ccc[n+]([O-])c2)c1)C1CCCCC1`, inhibition read “no effect” (CYP2C8; enzyme activity, inhibitor; pooled human liver microsomes; 0.1 to 30 µg/mL).
With `Cc1cc(Nc2ncnc3ccc(NC4=NC(C)(C)CO4)cc23)ccc1Oc1ccn2ncnc2c1` the mean half-life was 8.7 h (CYP2C8; substrate; human, plasma; oral, 300 mg single dose, day 1).
For `C=CC(=O)Nc1cc(Nc2nccc(-c3cn(C)c4ccccc34)n2)c(OCC(F)(F)F)nc1N(C)CCN(C)C`, the intrinsic clearance was 0.5 µL/min/pmol (CYP2C8; substrate depletion; recombinant human CYP; 1 µM).
For `CCOc1cc(CC(=O)N[C@@H](CC(C)C)c2ccccc2N2CCCCC2)ccc1C(=O)O`, “geometric mean AUC(0-inf)” read 11.1 ng·h/mL (CYP2C8; substrate; human, plasma; 0.5 mg, day 1).
The intrinsic clearance of `C=CC(=O)Nc1cc(Nc2nccc(-c3cn(C)c4ccccc34)n2)c(OCC(F)(F)F)nc1N(C)CCNC` is reported as 0.3 µL/min/pmol (CYP2C8; substrate depletion; recombinant human CYP; 1 µM).
`Cc1cc(Nc2ncnc3ccc(NC4=NC(C)(CO)CO4)cc23)ccc1Oc1ccn2ncnc2c1` (stereo not drawn) gave an AUC(0-inf) of 476 ng·h/mL (CYP2C8; human, plasma; oral, 300 mg tucatinib single dose, day 1, arithmetic mean).
With `COc1cc(O)c(CC=C(C)C)c(O)c1C(=O)/C=C/c1ccc(O)cc1` the inhibition was 47.8 ± 5.1% (CYP2C8; enzyme activity, inhibitor; human liver microsomes; 1 µM, pH 7.4, with: amodiaquine).
With `COc1ccc(C=O)cc1OS(=O)(=O)c1ccc(NC(C)=O)cc1` the labelling was 13.2% (UCHL1; covalent, intact protein LC-MS; 12.5 µM).
`C[C@H]1CN(C2COC2)CCN1c1ccc(Nc2cc(-c3ccnc(N4CCn5c(cc6c5CC(C)(C)C6)C4=O)c3CO)cn(C)c2=O)nc1` has a remaining compound of 94.4 ± 7.5% (CYP2C8; substrate; recombinant enzyme; 1 µM, 60 min).
`CC(C)=CCc1c(O)cc2c(c1O)C(=O)C[C@@H](c1ccc(O)cc1)O2` gave an inhibition of 85.5 ± 1.2% (CYP2C8; 10 µM, pH 7.4).
`N#CC(=Cc1csc2ccccc12)C(=O)NCc1ccco1` gave a labelling of 14.2% (UCHL1; covalent, intact protein LC-MS; 12.5 µM).
With `N#C[C@H](C[C@@H]1CCCNC1=O)NC(=O)[C@H](CC1CC1)NC(=O)c1cc2cccc(Cl)c2[nH]1` the half-life was 47.4 s (CYP2C8; NADPH metabolic stability; 2 µM, pH 7.4, 37 °C, 100 pmol/mL enzyme).
With `CC(C)=CCc1c(O)cc(O)c2c1O[C@H](c1ccc(O)cc1)CC2=O` the inhibition was 32.2 ± 1.2% (CYP2C8; 1 µM, pH 7.4).
With `C[C@@H](c1ccc2nccn2c1)n1nnc2ncc(-c3cnn(C)c3)nc21` the time-dependent inhibition was less than 20% (CYP2C8; human liver microsomes; 10 and 50 µM, 30 min preincubation, pH 7.4, with: ± NADPH).

Some of these lines once more:
With `N#C[C@H](C[C@@H]1CCCNC1=O)NC(=O)[C@H](CC1CC1)NC(=O)c1cc2cccc(Cl)c2[nH]1` the half-life was 47.4 s (CYP2C8; NADPH metabolic stability; 2 µM, pH 7.4, 37 °C, 100 pmol/mL enzyme).
With `CC(C)=CCc1c(O)cc(O)c2c1O[C@H](c1ccc(O)cc1)CC2=O` the inhibition was 32.2 ± 1.2% (CYP2C8; 1 µM, pH 7.4).
